# Experimental data of several laboratories.
# Numbered parts are unrelated; each lists some results of a single study.

# Sample 1 — mode: inhibitor; concentration: 20 µM
# Target: Replicase polyprotein 1ab, nsp13 helicase (rep, Severe acute respiratory syndrome coronavirus 2, UniProt P0DTD1)
Compound,inhibition [%]
O=C(/C=C\n1cnc(-c2cc(C(F)(F)F)cc(C(F)(F)F)c2)n1)NNc1cnccn1,1.59
COc1cc(S(C)(=O)=O)ccc1Nc1nc2ccc(-c3ccc(NC(=O)[C@H](C)c4ccc(F)cc4)cc3)cn2n1,1.69
CCn1cc(C(=O)O)c(=O)c2cc(F)c(N3CCN(C)CC3)cc21,2.08
OCCOc1ccc(/C(=C(/CCCl)c2ccccc2)c2ccccc2)cc1,4.3
C=C1/C(=C\C=C2/CCC[C@]3(C)[C@@H]([C@H](C)/C=C/[C@@H](O)C4CC4)CC[C@@H]23)C[C@@H](O)C[C@@H]1O,25
O=C(NC[C@H]1CN(c2ccc(N3CCOCC3=O)cc2)C(=O)O1)c1ccc(Cl)s1,2.95
CCOc1ccc(-n2c([C@@H](C)N(Cc3cccnc3)C(=O)Cc3ccc(OC(F)(F)F)cc3)nc3ncccc3c2=O)cc1,-4.7
Cn1c(=O)cnn(CCCCN2CCN(c3ncccn3)CC2)c1=O,6.31
CC[C@@H](CO)NC(=O)[C@@H]1C=C2c3cccc4[nH]cc(c34)C[C@H]2N(C)C1,3.83
CCCCC(F)(F)[C@@]1(O)CC[C@H]2[C@@H](CC(=O)[C@@H]2CCCCCCC(=O)O)O1,14.8
O=C(Nc1cnc(Cl)nc1)c1ccc(F)c(F)c1,11.6
COC(=O)c1cccnc1,3.53
CCCCCCCCCCCCCCC[C@@H](O)[C@@H](N)CO,3.08
c1ccc2c(CCNc3ccc(Nc4ccncc4)cc3)c[nH]c2c1,8.78
CCCc1nn(C)c2c(=O)[nH]c(-c3cc(S(=O)(=O)N4CCN(C)CC4)ccc3OCC)nc12,2.64
O=[N+]([O-])c1c(Nc2cc(F)cc(Cl)c2)ccc2nonc12,1.76
O=[N+]([O-])c1cn2c(n1)OC[C@@H](OCc1ccc(-c3ccc(OC(F)(F)F)cc3)nc1)C2,-2.29
Nc1c2ccccc2nc2ccccc12,-10.3

# Sample 2 — technique: protein binding microarray; form: double-stranded DNA, one strand shown; matrix: in vitro; concentration: not given; reference: not given; direction: higher = stronger binding
# Target: Histone acetyltransferase KAT6A, winged helix 2, GST fusion (KAT6A, Homo sapiens, UniProt Q92794, residues 85-181)
# Setting: 8-mer, flanks averaged, mean of 2 arrays, mostly near background
# Residues (chain): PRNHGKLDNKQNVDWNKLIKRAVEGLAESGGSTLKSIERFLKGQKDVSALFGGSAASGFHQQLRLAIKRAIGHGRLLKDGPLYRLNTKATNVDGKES
Oligonucleotide,E-score
TAAATAGA,-0.102
ACGGTTAT,-0.22
ATGGCCTG,0.199
ATGATATC,-0.0654
ACGACTCT,-0.279
GGTACTGA,-0.0744
AGAGATTA,-0.106
AGAAGCTG,-0.00445

# Sample 3 — technique: protein-binding microarray; form: double-stranded DNA, one strand shown; matrix: in vitro; concentration: 250 nM; setting: 60-bp whole probe; with: salmon DNA 0.4 mg/ml; reference: random background probes; direction: higher = stronger binding; shared flanks, not repeated: GCCTAGCAC … GTCTTGATTCGCTTGACGCTGCTG
# Target: Interferon regulatory factor 7, full length, phosphomimetic (IRF7, Homo sapiens, UniProt Q92985, residues 1-503, S101K/S471D/S472D/S475D/S476D/S477D/S483D/S484D/S487D)
# Construct (chain): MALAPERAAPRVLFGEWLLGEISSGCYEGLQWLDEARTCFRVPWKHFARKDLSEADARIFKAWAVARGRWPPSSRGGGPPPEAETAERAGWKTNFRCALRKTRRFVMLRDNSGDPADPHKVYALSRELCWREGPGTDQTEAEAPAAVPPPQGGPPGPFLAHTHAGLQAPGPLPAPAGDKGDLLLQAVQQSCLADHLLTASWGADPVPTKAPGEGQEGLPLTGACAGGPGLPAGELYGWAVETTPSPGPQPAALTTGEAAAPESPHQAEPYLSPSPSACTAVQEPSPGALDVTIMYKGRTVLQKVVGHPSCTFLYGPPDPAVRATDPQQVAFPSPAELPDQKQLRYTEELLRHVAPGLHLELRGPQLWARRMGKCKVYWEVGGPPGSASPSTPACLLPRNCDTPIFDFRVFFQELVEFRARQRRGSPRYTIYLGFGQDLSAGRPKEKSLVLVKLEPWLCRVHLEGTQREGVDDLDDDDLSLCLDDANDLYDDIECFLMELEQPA
Oligonucleotide,log fluorescence [z-score]
TCAAGTTTTCCTATGTCACTGTGCTAG,1.54
TCACATATATATATGAAACTGTGCTAG,0.69
TTAGATATCGGGACTGGATTTGTGCTA,0.231
TCATTTTTTTTTCTGATACTGTGCTAG,1.31
GACGGAATCGGGTATCGGGACGTGCTA,0.109
GACGAACTGAGTCTCGAGAGGTGCTAG,-0.166
TTAGGGATCCTTATCCTTTAGTGCTAG,-0.223
CGAGTTTCCATTTTCTGAATGTGCTAG,8.88

# Mixed results — read-out: enzyme activity; mode: inhibitor; concentration: 20 µM; setting: hit confirmation
# Target: Replicase polyprotein 1ab, main protease (rep, Severe acute respiratory syndrome coronavirus 2, UniProt P0DTD1)
SMILES,inhibition [%]
CO/N=C(\C(=O)N[C@@H]1C(=O)N2C(C(=O)O)=C(CSC(=O)c3ccco3)CS[C@H]12)c1csc(N)n1,73.1
CN(C)S(=O)(=O)c1cccc(-n2sc3ccccc3c2=O)c1,110

# Excerpt of the above (sample 3):
Oligonucleotide,log fluorescence [z-score]
TTAGGGATCCTTATCCTTTAGTGCTAG,-0.223
CGAGTTTCCATTTTCTGAATGTGCTAG,8.88
GACGGAATCGGGTATCGGGACGTGCTA,0.109
TCAAGTTTTCCTATGTCACTGTGCTAG,1.54
